Measured values from different studies.
Compare with care: the assays were run in different laboratories. “And” joins repeats or separate records; there may be more than shown.
Target: Inhibitor of nuclear factor kappa-B kinase subunit epsilon (IKBKE, Homo sapiens, UniProt Q14164)
One construct used (Q14164 1-716): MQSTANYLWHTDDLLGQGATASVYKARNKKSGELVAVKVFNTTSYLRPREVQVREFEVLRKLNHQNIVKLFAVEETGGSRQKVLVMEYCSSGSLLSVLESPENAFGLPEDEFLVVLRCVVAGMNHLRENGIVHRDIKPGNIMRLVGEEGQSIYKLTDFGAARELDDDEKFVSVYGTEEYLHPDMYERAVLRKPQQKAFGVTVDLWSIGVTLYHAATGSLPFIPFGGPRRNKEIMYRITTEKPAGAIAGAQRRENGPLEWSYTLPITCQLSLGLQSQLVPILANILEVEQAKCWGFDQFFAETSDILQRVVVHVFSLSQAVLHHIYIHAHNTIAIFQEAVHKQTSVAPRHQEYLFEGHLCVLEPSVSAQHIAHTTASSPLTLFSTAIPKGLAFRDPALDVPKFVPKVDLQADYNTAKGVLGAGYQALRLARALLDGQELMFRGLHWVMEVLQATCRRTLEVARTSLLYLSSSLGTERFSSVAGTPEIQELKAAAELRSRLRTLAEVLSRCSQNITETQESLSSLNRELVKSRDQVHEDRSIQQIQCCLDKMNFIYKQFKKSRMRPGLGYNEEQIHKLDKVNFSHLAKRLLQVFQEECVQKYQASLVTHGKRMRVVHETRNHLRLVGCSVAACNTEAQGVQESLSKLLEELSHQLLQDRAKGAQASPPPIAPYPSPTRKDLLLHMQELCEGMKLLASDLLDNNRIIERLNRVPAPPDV

SMILES | test | setting | how to read | measurement | result
C=CC(=O)N1CCc2ccc(-n3c(=O)ccc4cnc5ccc(-c6cnn(C)c6)cc5c43)cc21 | KINOMEscan | 1 µM | baseline: DMSO control | remaining binding | 100%
COc1cc(Nc2nccc(-c3cnn4nc(OC)ccc34)n2)cc(C(F)(F)F)c1 | binding, competition with immobilised ligand | 1 µM |  | remaining binding | 65%
CC(C)=CC1OC(C)(C)C2C=C3C(=O)C(Cl)=CC(O)C3C3C(O)C4OC4C(=O)C132 (stereo not drawn) | cell-free assay, competition with immobilised ligand | 10 µM |  | remaining binding | 98%
Cc1cccc(O[C@H]2CCC[C@@H](C(C)CNCc3ccncc3)C2)c1 (relative stereo) | enzyme activity, inhibitor | 1 µM |  | inhibition | 18%
COCC12C(=O)NC3C4(C(OC)CC1O)C1CC5(O)C(OC)C(O)C(OC(C)=O)(C1C5OC(=O)c1ccccc1)C3(O)C(OC)C24 (stereo not drawn) | kinase activity, inhibitor, ProQinase kinase profiling | 25 µM | baseline: control | remaining activity | 85% and 98%
CCn1cc(C(=O)O)c(=O)c2c(N)c(F)c(NC3CCCCC3)cc21 | kinase activity | 0.1 µM, with: ATP at Km |  | inhibition | -4.4%
CNC(=O)C1CCN(c2cc(C)c(F)cc2NC(=O)c2ccc(-c3cc(O)ccc3C)c(C)c2)CC1 | binding, competition with immobilised ligand | 1 µM |  | remaining binding | 84%
Nc1ncc2c(n1)-c1c([nH]c3ccc(C4=CCOCC4)cc13)CCC2 | binding, competition with immobilised ligand | 1 µM |  | remaining binding | 100%
Cc1cccc(-c2ccc3nc(NC(=O)C4CCCCC4)nn3c2)c1 | enzyme activity, Dundee kinase panel | 10 µM |  | remaining activity | 86%
C=CC(=O)N1CCCC(n2c(=O)c3ncccc3n(Cc3ccc(Oc4ccccc4)cc3)c2=O)C1 (stereo not drawn) | binding, competition with immobilised ligand | 1 µM |  | remaining binding | 99%
NC(=O)[C@@H](O)C[C@H]1CCc2sc3ncnc(O[C@H]4CC[C@H](N5CCOCC5)CC4)c3c21 | enzyme activity, inhibitor | 10 µM |  | inhibition | -1%
C=CC(=O)Nc1cccc(-c2cnc3[nH]cc(C(=O)NC(C)(C)C)c3n2)c1 | enzyme activity, inhibitor | 0.1 µM |  | inhibition | 12%
CN1CC[C@@H](COc2cnc(C#N)cc2-c2ccn3nc(NC(=O)C4CC4)cc3c2)C1 | enzyme activity, inhibitor | 1 µM |  | inhibition | 8%
Cc1cccc(-c2ccc3nc(NC(=O)C4CCOCC4)nn3c2)c1 | enzyme activity, Dundee kinase panel | 10 µM |  | remaining activity | 108%
Cc1cnc2nc1Nc1cccc(c1)COC/C=C/COCc1cc(ccc1OCCN1CCOCC1)N2 | binding, competition with immobilised ligand | 0.1 µM |  | remaining binding | 95%
